Assay results of several laboratories.
Values joined by “and” are separate records of one study, mostly repeats; a detail may differ. ± gives the spread as reported.
Cell line: A549

SMILES | test | conditions | IC50
CN(C)C/C=C/C(=O)Nc1cc2c(Nc3ccc(F)c(Cl)c3)ncnc2cc1O[C@H]1CCOC1 |  |  | 2210 ± 20 nM
CC(O)[C@@H]1CCCN1C(=O)[C@@H]1CCCN1C(=O)OC(C)(C)C (mixture of isomers) | cell growth, sulforhodamine B |  | 590 nM and 515 nM
COc1cc(C2=CCCc3c2ccc(OC)c3OCc2ccc([N+](=O)[O-])o2)cc(OC)c1OC |  | 4 h, anoxic | 30 ± 6 nM
C#CCCCC[C@H](C)C[C@@H](C)C(=O)O | cell growth, sulforhodamine B |  | 142000 nM and 176000 nM and 181000 nM
COc1ccc(-c2cc(-c3ccc(-n4cccc4)cc3)nc(N)n2)cc1 | viability, MTT | 24 h | 105000 nM
COc1ccc2c(c1NC(=O)OCc1cnc([N+](=O)[O-])n1C)CCC=C2c1cc(OC)c(OC)c(OC)c1 | cell growth, SRB | 4 h exposure then 120 h oxic, oxic exposure then drug removal | 5590 ± 1390 nM
COc1ccc(Cc2nccc3cc(OC)c(OC)cc23)cc1OC | mitochondrial oxygen consumption, Seahorse XF96 |  | 25000 nM
COc1cc(C2=CCCc3c2ccc(OC)c3OC(C)c2ccc([N+](=O)[O-])s2)cc(OC)c1OC (stereo not drawn) |  | 4 h, anoxic | 860 ± 420 nM
COc1ccc2nccc(Cc3cccc(-c4cnn(C5COC5)c4)c3)c2c1 | mitochondrial oxygen consumption rate, Seahorse XF96 |  | 1900 nM
Nc1ncc(-c2cnn(C3CCNCC3)c2)cc1-c1nnc(CC2CC2)o1 | inhibitor, Western blot, refers to: phospho-Akt |  | 170 nM
COc1ccc2nccc(Cc3cccc(-c4ccc(COP(=O)(O)O)cc4)c3)c2c1 | mitochondrial oxygen consumption, Seahorse XF96 |  | 2200 nM
C=C1C[C@](OC)([C@H](OCOC/C=C/B2OC(CC)(CC)C(CC)(CC)O2)C(=O)NC[C@@H]2C[C@@H](OC)C(C)(C)[C@@H](C[C@@H](COC)OC)O2)O[C@H](C)[C@@H]1C | cell viability, sulforhodamine B | 72 h, 37 °C, without H2O2 | 26 ± 6 nM
